# Assay results from different studies.
# A part holds a random share of what one study measured. Positions count from the first letter of the parent shown.

# Set 1
# Target: RNA binding protein fox-1 homolog 2, RRM domain, GST-SBP tag (RBFOX2, Homo sapiens, UniProt O43251-10, residues 100-194)
# Technique: RNA Bind-n-Seq
# Molecule type: RNA
# Sample: in vitro
# Tested at: 365 nM
# Setting: natural RNA segment, single round, ends assumed
# Relative to: no-protein control
# Direction: higher = stronger binding
# Constant ends, left off below: GGGAGUUCUACAGUCCGACGAUC … UGGAAUUCUCGGGUGCCAA
# Residues (chain): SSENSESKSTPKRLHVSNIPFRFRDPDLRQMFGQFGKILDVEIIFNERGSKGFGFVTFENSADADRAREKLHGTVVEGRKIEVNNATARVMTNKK
Oligonucleotide,RBNS enrichment (R)
UCAAAAAAAAAAAGUCCUCUUAAGGCCAGUAAUUUAUCUGAAAAGGUAUUUUAUCACACCUUGACACCUUAUAUAUGAGCCUAUUAGGAGCUGCAGGUGGUUUCAUAGGG,0.32
AUACCUGAAAGCAGUGAUUUACUAGAAUUGCUUUGUGUGGCUACUAAGUUUAUUUUGUCAAAAAUGACAAGGAAAAAGCCAGCUGUUUUCAUAGACCUUUUCAUUAUGAU,0.582
AGGACUCGGACGUGUUCGAGGAGGACACUCACCUGUGAGCGCCGGGCCACGGGCGCGAGACUGCCCGACGCCACGGCCCCGCGCCCCUCCCGGUCCUCCACGCGGACCAC,0.431
UGGUGCCCUUGUUGACUGUCUGGGAAGAUGAAUAUACCAGGGUUUCCAAAUCCAGCCCUUUUCGUUCUCUUAAUGAUGAAUCACCCAAAGACCUGGCUUUCAUGCUUCCU,0.295
UAUGAAGAAAAACACAAAGUGUAUAAAUCUUGAGUAUAUAUUUACAUGUCUUUUUAAAAAGGGUCGUUACUAGAGAUUUACCCAUGGGGGAGACGCCCAGGGUAGCAUCC,0.408
AAUAUUUUUAACUUGGGGCAGGAAGAAGGGAGCAGCAGAGAAUUGACUAGAUAUAGCACCUAUUAAAAGAGAACUCUUGCUUCUUCUGAGAUUUUUCAAGCUGUGCUUUG,0.902
CUGCUUUUUAAGAGAAAUUUCAGGAAGGAUGAUCAUUCCAGUUAGUUUGGCAUUUUUUGUCGUUUGUGCACAUAACUUGGUGUUAUCCUUAUGUCAUCAGAUUCCUCCUA,0.618
UAAUCCUGACGUGGGGUGGAGUGGGGUGAGGCAGAGGGAGCAGCCCCAACACCUGCACUGGGCCAUCUAUGGGAAAGAACACGGGUCGAGUGCAGUCGAGUUGUCUGGCC,1.48
AAGUUAUCUGUGACUAUUAUAUAGGGAUCACAAAAGUGUCACAUAUUAGAAUGCUGACCUUUCAUAUGGAUUAUUGUGAGUCAUCAGAGUUUAUUAUAACUUAUUGUUCA,0.542
UGCAUCUCUCUUCAUUUAAAAAGGAUACACAAUUCUUUCCUCAUUGCAUAUUACACCAAACGUUUGAGGGAAAAAUCCUCAUUCGUAAAGGAUUUUGGAUGUAUAAUCUA,0.715
GCUCCCUCCCUCCCUGUAAGCUUUCACUCACCAGCGUGUUUAUUUACACAUCCAUUACUUAUUCACUCAUCAGACUGUCAUGAAAUAUUUGUGUUGUUCCAGGGCCUGUG,0.918
UCUCAGCUGAGCUGUGAGGGCUUCCAGGGAAAAUGGAACAAAAUGGUGUUCUUAGGUAAUGGGUUGUAGAUACUGAGUCUUCCUUUCCUUUUCUGACCCUUCUCGAGGAC,0.722

# Set 2
# Target: CDC34 UBC core domain (UniProt P49427)
# Chain of UniProt P49427 (whole entry, looked up): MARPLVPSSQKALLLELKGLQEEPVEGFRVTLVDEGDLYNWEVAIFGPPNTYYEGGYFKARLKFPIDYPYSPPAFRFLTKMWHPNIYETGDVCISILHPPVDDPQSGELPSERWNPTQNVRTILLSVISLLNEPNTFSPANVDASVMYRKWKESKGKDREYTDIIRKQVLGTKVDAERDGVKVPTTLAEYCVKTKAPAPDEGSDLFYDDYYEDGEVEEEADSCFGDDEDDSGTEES
# Technique: yeast two-hybrid
# Sample: yeast
# Setting: mostly zero background
# Relative to: not given
# Direction: higher = stronger interaction
# B1: SYTL4 RING domain (UniProt Q96C24); chain RGSQHYSDRTCARCQESLGRLSPKTNTCRGCNHLVCRDCRIQESNGTWRCKVCAKEIELKKAT
# B2: MDM4 RING domain (UniProt O15151); chain MEDCQNLLKPCSLCEKRPRDGNIIHGRTGHLVTCFHCARRLKKAGASCPICKKEIQLVIKVF
# B3: DZIP3 RING domain (UniProt Q86Y13); chain PDEEEEEEEPCVICHENLSPENLSVLPCAHKFHAQCIRPWLMQQGTCPTCRLHVLLPEEFP
# B4: MAP3K1 RING domain (UniProt Q13233); chain NSIKDEEEQMCPICLLGMLDEESLTVCEDGCRNKLHHHCMSIWAEECRRNREPLICPLCRSKWRSHDFYS
# B5: UBOX5 RING domain (UniProt O94941); chain EQPGSILGPECASCKRVFSPYFKKEPVYQLPCGHLLCRPCLGEKQRSLPMTCTACQRPVASQDVLR
# B6: RBCK1 RING domain (UniProt Q9BYM8); chain SLVLNTEPAECPVCYSVLAPGEAVVLRECLHTFCRECLQGTIRNSQEAEVSCPFIDNTYSCSGKLLEREIK
# B7: RNF133 RING domain (UniProt Q8WVZ7); chain DEEINPNGDSCVICFERYKPNDIVRILTCKHFFHKNCIDPWILPHGTCPICKCDILKVLGIQ
# B8: ZMIZ2 RING domain (UniProt Q8NF64); chain GTIPGTPGPNGEDGVEQTAIKVSLKCPITFRRIQLPARGHDCRHIQCFDLESYLQLNCERGTWRCPVCNKTALLEGLEVDQYMLGILIYIQNSDYEEITIDPTCSWK
Sequence,lacZ reporter activity
B1 (SYTL4 RING domain),0
GSDDEEIPFKCFICRQSFQNPVVTKCRHYFCESCALQHFRTTPRCYVCDQQTNGVFNPA (RNF113A RING domain (UniProt O15541)),0
B2 (MDM4 RING domain),0
B3 (DZIP3 RING domain),0
B4 (MAP3K1 RING domain),0
B5 (UBOX5 RING domain),0
B6 (RBCK1 RING domain),0
FDGDVDPDLKCALCHKVLEDPLTTPCGHVFCAGCVLPWVVQEGSCPARCRGRLSAKELN (PDZRN3 RING domain (UniProt Q9UPQ7)),0
YQNEVDDDLVCHICLQPLLQPLDTPCGHTFCYKCLRNFLQEKDFCPLDRKRLHFKLCKK (LNX2 RING domain (UniProt Q8N448)),0
B7 (RNF133 RING domain),0
AMYLQENGIDCPKCKFSYALARGGCMHFHCTQCRHQFCSGCYNAFYAKNKC (RNF31 RING domain (UniProt Q96EP0)),0
B8 (ZMIZ2 RING domain),0

# Set 3
# Target: Ras GTPase-activating protein-binding protein 1, full length (G3BP1, Homo sapiens, UniProt Q13283)
# Chain of UniProt Q13283 (whole entry, looked up): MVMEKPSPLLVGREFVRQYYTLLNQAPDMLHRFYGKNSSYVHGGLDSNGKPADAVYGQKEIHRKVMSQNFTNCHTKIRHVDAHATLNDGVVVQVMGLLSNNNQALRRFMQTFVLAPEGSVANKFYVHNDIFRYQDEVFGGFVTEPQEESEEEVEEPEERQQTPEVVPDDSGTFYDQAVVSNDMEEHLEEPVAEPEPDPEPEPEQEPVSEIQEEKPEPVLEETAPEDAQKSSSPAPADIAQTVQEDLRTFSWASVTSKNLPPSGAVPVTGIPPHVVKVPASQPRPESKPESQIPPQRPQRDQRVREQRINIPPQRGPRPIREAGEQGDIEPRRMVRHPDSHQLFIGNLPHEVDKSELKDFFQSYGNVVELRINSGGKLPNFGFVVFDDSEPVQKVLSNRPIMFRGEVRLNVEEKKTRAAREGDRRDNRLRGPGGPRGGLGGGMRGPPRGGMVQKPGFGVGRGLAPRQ
# Technique: RNA Bind-n-Seq
# Molecule type: RNA
# Sample: in vitro
# Tested at: 200 nM
# Setting: whole 134-nt RNA, ends assumed
# Added: 150 mM LiCl
# Relative to: input library
# Direction: higher = stronger binding
# Each molecule: 7-deaza-guanosine replaces G
# Constant ends, left off below: GGGAGUUCUACAGUCCGACGAUC … UGGAAUUCUCGGGUGUCAAGG
Oligonucleotide,log2 enrichment
GUCCUGUGCUACACAUCGUAUGUACCGAAUCGGGGUUUUGGGUUUUGGGGUUUUGGGGAAAGUAUUAUGUUACGCCGUUCGGAUCUGCAC,0.17
UCCUCAAGUCCUGUGCUACACAUCGUAUGUACCGAAUCGGAGGUGGAAAGGAAAGUAUUAUGUUACGCCGUUCGGAUCUGCACUUCCAGC,-0.605
GUCCUGUGCUACACAUCGUAUGUACCGAAUCGGGGUUUUUGGGGUUUGGGGAAAGGGGAAAGUAUUAUGUUACGCCGUUCGGAUCUGCAC,-0.737
UCCUGUGCUACACAUCGUAUGUACCGAAUCGGGCCCCCCGGGCCCCCCGGGGCCCCCCGGAAAGUAUUAUGUUACGCCGUUCGGAUCUGC,-1.17
CACAGACAACACGCACCCACACAGACACAGAGGGAAGAGGUUGGGAUGGGGACAGGGUGCACAGCAGGGCGGGGUAGGACCCCAGCCCCU,-1.01
CUGUGCUACACAUCGUAUGUACCGAAUCGGGGAAAAAAGGGGAAAAAAGGGAAAAAAGGGGAAAGUAUUAUGUUACGCCGUUCGGAUCUG,0.487
CACAGACAACACGCACCAAAACAGACACAGAGGGAAGGGGUUGGGAUGGGGACAGGGUGCACAGCAGGGCGGGGUAGGACCCCAGCCCCU,0.573
GUCCUGUGCUACACAUCGUAUGUACCGAAUCGGGCCCCCGGCCCCCGGGCCCCCGGGGAAAGUAUUAUGUUACGCCGUUCGGAUCUGCAC,-0.791
CCUGUGCUACACAUCGUAUGUACCGAAUCGGUUUUUUGGGGUUUUUUGGGGUUUUUUGGGGAAAGUAUUAUGUUACGCCGUUCGGAUCUG,0.717
GUCCUGUGCUACACAUCGUAUGUACCGAAUCGGGUUUGGGAAAAAAAGGGUUUUUGGGAAAGUAUUAUGUUACGCCGUUCGGAUCUGCAC,-1.56
CAAGUCCUGUGCUACACAUCGUAUGUACCGAAUCGGGUUUUGGUUUUGGUUUUGGGAAAGUAUUAUGUUACGCCGUUCGGAUCUGCACUU,-1

# Set 4
# Target: CCNE2, cyclin fold, Cln2 fusion (human)
# Technique: yeast growth competition, sequencing
# Sample: yeast
# Setting: weak parent motif
# Relative to: not given
# Direction: higher = stronger binding
# Starting sequence: PKN2 docking peptide (human); VSAVQKLDFSDTM; partner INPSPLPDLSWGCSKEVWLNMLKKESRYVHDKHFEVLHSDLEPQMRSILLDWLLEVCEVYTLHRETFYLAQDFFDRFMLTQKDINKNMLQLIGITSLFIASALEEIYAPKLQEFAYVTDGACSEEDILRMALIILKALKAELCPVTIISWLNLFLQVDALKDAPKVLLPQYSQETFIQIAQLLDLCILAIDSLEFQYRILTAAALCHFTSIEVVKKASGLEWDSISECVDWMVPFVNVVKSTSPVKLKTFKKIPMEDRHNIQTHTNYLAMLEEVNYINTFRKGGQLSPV
Variant,normalised enrichment score
M13H,0.582
D8N,0.144
D11C,0.554
M13K,0.51
V1W,0.0794
D11K,-0.0585
V4T,-0.38
S2W,0.0427
V4E,0.0103
F9Q,0.00845
D11Q,-0.247
V1L,-0.252
T12V,0.0917
K6N,0.528
M13N,0.412
A3M,0.177
A3F,0.125
L7E,0.0743
D11A,0.174
D8A,0.395
V1K,0.348
F9P,-0.474
L7M,-0.201
S10Q,-0.059
D8Y,0.35

# A few entries again (set 3):
Oligonucleotide,log2 enrichment
UCCUGUGCUACACAUCGUAUGUACCGAAUCGGGCCCCCCGGGCCCCCCGGGGCCCCCCGGAAAGUAUUAUGUUACGCCGUUCGGAUCUGC,-1.17
CACAGACAACACGCACCCACACAGACACAGAGGGAAGAGGUUGGGAUGGGGACAGGGUGCACAGCAGGGCGGGGUAGGACCCCAGCCCCU,-1.01
CUGUGCUACACAUCGUAUGUACCGAAUCGGGGAAAAAAGGGGAAAAAAGGGAAAAAAGGGGAAAGUAUUAUGUUACGCCGUUCGGAUCUG,0.487
CACAGACAACACGCACCAAAACAGACACAGAGGGAAGGGGUUGGGAUGGGGACAGGGUGCACAGCAGGGCGGGGUAGGACCCCAGCCCCU,0.573
GUCCUGUGCUACACAUCGUAUGUACCGAAUCGGGCCCCCGGCCCCCGGGCCCCCGGGGAAAGUAUUAUGUUACGCCGUUCGGAUCUGCAC,-0.791
CCUGUGCUACACAUCGUAUGUACCGAAUCGGUUUUUUGGGGUUUUUUGGGGUUUUUUGGGGAAAGUAUUAUGUUACGCCGUUCGGAUCUG,0.717
